Assay results pooled from the literature.
Lines come from different studies, so protocols differ. ± gives the spread as reported.
UniProt Q15391, sequence (whole entry, unmodified, looked up): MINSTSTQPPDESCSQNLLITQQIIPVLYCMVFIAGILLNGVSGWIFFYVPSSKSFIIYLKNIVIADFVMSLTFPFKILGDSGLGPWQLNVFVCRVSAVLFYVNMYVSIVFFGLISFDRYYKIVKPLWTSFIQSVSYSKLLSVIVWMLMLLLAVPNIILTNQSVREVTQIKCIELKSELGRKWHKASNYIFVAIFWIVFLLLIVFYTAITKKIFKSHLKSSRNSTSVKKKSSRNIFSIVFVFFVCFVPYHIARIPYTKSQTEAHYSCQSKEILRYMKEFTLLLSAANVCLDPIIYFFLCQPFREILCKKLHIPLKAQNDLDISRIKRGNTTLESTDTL
UniProt P08684, sequence (whole entry, looked up): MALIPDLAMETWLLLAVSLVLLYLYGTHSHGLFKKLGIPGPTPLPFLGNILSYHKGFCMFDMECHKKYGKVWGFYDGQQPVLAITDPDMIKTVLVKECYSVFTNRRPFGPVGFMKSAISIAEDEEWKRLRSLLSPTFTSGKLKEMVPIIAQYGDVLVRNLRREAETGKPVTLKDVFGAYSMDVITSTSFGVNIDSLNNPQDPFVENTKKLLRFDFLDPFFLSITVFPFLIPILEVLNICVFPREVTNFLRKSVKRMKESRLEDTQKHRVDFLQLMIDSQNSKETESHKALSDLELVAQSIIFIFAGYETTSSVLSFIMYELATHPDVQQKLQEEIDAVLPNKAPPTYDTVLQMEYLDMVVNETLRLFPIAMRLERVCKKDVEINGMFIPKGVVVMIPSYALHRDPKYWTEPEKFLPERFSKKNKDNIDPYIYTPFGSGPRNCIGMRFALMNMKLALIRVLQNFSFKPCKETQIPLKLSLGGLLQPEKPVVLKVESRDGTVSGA
UniProt Q86Y07, sequence (whole entry, looked up): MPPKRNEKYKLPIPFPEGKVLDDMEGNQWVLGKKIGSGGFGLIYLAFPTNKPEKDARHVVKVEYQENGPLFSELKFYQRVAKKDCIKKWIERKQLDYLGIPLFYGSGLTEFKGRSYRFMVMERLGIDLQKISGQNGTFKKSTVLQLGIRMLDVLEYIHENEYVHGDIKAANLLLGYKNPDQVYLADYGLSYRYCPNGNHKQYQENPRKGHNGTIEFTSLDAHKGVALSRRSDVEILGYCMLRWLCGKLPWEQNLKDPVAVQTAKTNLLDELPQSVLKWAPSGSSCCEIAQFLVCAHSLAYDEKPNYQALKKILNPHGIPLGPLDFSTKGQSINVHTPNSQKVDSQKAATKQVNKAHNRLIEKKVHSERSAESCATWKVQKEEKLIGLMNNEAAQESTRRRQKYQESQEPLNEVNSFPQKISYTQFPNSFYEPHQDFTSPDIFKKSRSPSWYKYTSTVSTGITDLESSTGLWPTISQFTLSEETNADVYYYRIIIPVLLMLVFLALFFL

Cc1ccc(S(=O)(=O)Nc2nc(N)c(-c3nc4ccccc4s3)c(-c3ccc(Cl)cc3)n2)cc1
maximum non-toxic concentration (Huh7.5; cytotoxicity; 72 h): 100 µg/mL

CC1(C)C2CCC1(CS(=O)(=O)[O-])C(=O)C2.[Na+] (racemic)
cytotoxicity (THP-1; MTT; 50 µM): not toxic

COc1c(O)c(C)cc2c1C(=O)c1c(O)cccc1C2=O
viability (HK-2 co-cultured with HepaRG; MTT; 266.67 µM, 48 h; reference: untreated control): 59.7 ± 6.33%

N#Cc1ccc(Nc2nc(N)cc(Oc3ccc(-c4ccccc4F)cc3F)n2)cc1
CC50 (MT4 uninfected): 19.9 ± 7.82 µM

CCCCCCCCCCCCCCCCOP(=O)([O-])OCC[N+](C)(C)C
CC50 (human primary fibroblasts; viability, MTS; 24 h): > 20 µM

O=c1ccn([C@@H]2O[C@H](COP(=O)(O)OP(=O)(O)O[C@H]3O[C@H](CO)[C@@H](O)[C@H](O)[C@H]3O)[C@@H](O)[C@H]2O)c(=S)[nH]1
Ki (P2Y purinoceptor 14 (P2RY14, Homo sapiens, UniProt Q15391, Y102A)): > 3 µM

CCc1ncn(CC(c2c[nH]c3ccc(C)cc23)c2c[nH]c3ccc(C)cc23)c1C(=O)OC
CC50 (human primary fibroblasts; viability, MTS; 24 h): > 20 µM

CC(C)[C@H](NC(=O)[C@@H](NC(=O)CCCc1cn(CC(O)CN2CCN(CC(=O)O)CCN(CC(=O)O)CCN(CC(=O)O)CC2)nn1)[C@@H](C)O)C(=O)N[C@@H](CCCNC(=N)N)C(=O)N[C@H](C(=O)N[C@@H](CO)C(=O)N[C@@H](C)C(=O)N[C@@H](CC(=O)O)C(=O)O)[C@@H](C)O (some centres unmarked)
AUC(0-inf) (healthy male humans, plasma; intravenous, 0.04 mmol/kg): 1020 ± 244 µg·h/mL

Cc1cc(C(=O)NC(C)(C)COc2cccc3c2C(N)=NS(=O)(=O)N3)cc(C)n1
cytotoxicity (human peripheral blood lymphocytes; CBPI, concurrent micronucleus test; 1500 µg/mL, 4 h; reference: vehicle control): 6%

CCOC(=O)c1cc(C#N)c(=O)n(NS(=O)(=O)c2ccc(C)cc2)c1N
maximum non-toxic concentration (Huh7.5; 72 h): 90 µg/mL

CC(=O)c1c(C)cc2cc(O)cc(O[C@@H]3O[C@H](CO)[C@@H](O)[C@H](O)[C@H]3O)c2c1O
cell viability (HK-2 co-cultured with HepaRG; MTT; 16.67 µM, 48 h; reference: untreated control): 99.8 ± 4.17%

N#Cc1ccc(Nc2nc(N)cc(Oc3ccc(-c4cccc(C#N)c4)cc3)n2)cc1
CC50 (MT4 uninfected): > 256 µM

CC(C)C[C@H](NC(=O)C[C@H](O)[C@H](CC(C)C)NC(=O)[C@H](Cc1c[nH]cn1)NC(=O)CNC(=O)[C@@H](NC(=O)[C@H](C)NC(=O)[C@H](Cc1c[nH]c2ccccc12)NC(=O)[C@H](CCC(N)=O)NC(=O)[C@@H](Cc1ccccc1)NC(=O)COCCOCCNC(=O)CCC(C(=O)O)N1CCN(CC(=O)O)CCN(CC(=O)O)CCN(CC(=O)O)CC1)C(C)C)C(N)=O (some centres unmarked) [lutetium-177 labelled]
tissue uptake (BALB/c nu/nu mice, female, lumbar lymph node metastases; intravenous, 50 pmol, 24 h): 5 ± 0.8 %ID/g

Nc1nc(NS(=O)(=O)c2ccccc2)ncc1-c1nc2ccccc2s1
maximum non-toxic concentration (Huh7.5; cytotoxicity; 72 h): 100 µg/mL

N#Cc1ccc(Nc2nc(N)cc(Oc3ccc(-c4cccc(C#N)c4)cc3F)n2)cc1
CC50 (MT4 uninfected): 221 ± 9.52 µM

CC[C@H](CO)N(CCN(N=O)[C@H](CC)CO)N=O
revertant colonies per plate (Salmonella typhimurium; mutagenicity, Ames plate incorporation; TA1535; 1500 µg/plate, without S9, methanol): 32.7 ± 6

N#Cc1ccc(Nc2nc(N)cc(Oc3ccc(-c4ccc(F)cc4)cc3F)n2)cc1
CC50 (MT4 uninfected): > 256 µM

Cc1nn(CC(F)(F)F)cc1Nc1ncc(Br)c(NCCc2cnc[nH]2)n1
number of kinases inhibited (16-kinase panel; radiometric; 1 µM, ATP at Km; below 10% of control): 0

CCOC(=O)c1c(C)ncn1CC(c1cn(C)c2ccc([N+](=O)[O-])cc12)c1cn(C)c2ccc([N+](=O)[O-])cc12
CC50 (human primary fibroblasts; viability, MTS; 24 h): > 20 µM

Cn1cc(-c2ccc(-c3cncc(Cl)c3N3CCC4(CCNC4=O)CC3)cc2)cn1
fold change in expression (COLO 205; microarray, item: ATF3; concentration not given, 6 h, gene set ATF-3; reference: untreated cells): 2.11

N#Cc1cc(C#N)c(=O)n(NS(=O)(=O)c2ccccc2)c1N
maximum non-toxic concentration (Huh7.5; 72 h): 90 µg/mL

O=C(O)c1cc(O)c2c(c1)C(=O)c1cccc(O[C@@H]3O[C@H](CO)[C@@H](O)[C@H](O)[C@H]3O)c1C2=O
cell viability (HK-2 co-cultured with HepaRG; MTT; 133.33 µM, 24 h; reference: untreated control): 89.5 ± 6.51%

Cc1cc(Nc2ccc(S(F)(F)(F)(F)F)cc2)n2nc(C(C)(F)F)nc2n1
free drug concentration (SIRC; culture medium; 20 µM, 48 h): 2400 nM

Cc1ccc(S(=O)(=O)Nn2c(N)c(-c3nc4ccccc4s3)c3[nH]nc(N)c3c2=O)cc1
maximum non-toxic concentration (Huh7.5; 72 h): 90 µg/mL

Cc1cc(O)c2c(c1)C(=O)c1cccc(O)c1C2=O
viability (HK-2 co-cultured with HepaRG; MTT; 16.67 µM, 24 h; reference: untreated control): 92.4 ± 5.77%

CC[C@H]1[C@@H](O)[C@@H]2[C@H](CC[C@]3(C)[C@@H]([C@H](C)CCNC(=O)NS(=O)(=O)c4ccc(C(C)(C)C)cc4)CC[C@@H]23)[C@@]2(C)CC[C@@H](O)C[C@@H]12
AUC(0-t) mean (Cytochrome P450 3A4 (CYP3A4, Homo sapiens, UniProt P08684); human, plasma; 10 mg, day 1, compound alone): 0.434 µg·h/mL

CC1=CC(=O)c2ccccc2C1=O
IC50 (MRC-5; cytotoxicity, MTT; 48 h, 10% FBS): 22.4 ± 0.33 µM

C/C(O)=C(\C#N)C(=O)Nc1ccc(C(F)(F)F)cc1
free drug concentration (SIRC; culture medium; 1 µM, 48 h): 260 nM

CCCCc1oc2ccc(NS(C)(=O)=O)cc2c1C(=O)c1ccc(OCCCN(CCCC)CCCC)cc1
ALERT score (H9 human embryonic stem cell aggregates; qRT-PCR; 3D aggregates; 0.025 µM, 5 days, developmental toxicity model; direction not given): 0

NCC(N)C(=O)O (centres unmarked)
inhibition (THP-1; pyroptotic LDH release; 2 µM, 40 min, added: LPS then nigericin): 2.98%

COc1cccc(-c2n[nH]c(SCc3ccccn3)n2)c1OC
cytostasis (CHO-WBL; micronucleus test; 50 µg/mL, 3 h, added: rat liver S9): -1%

Nc1nc(NS(=O)(=O)c2ccccc2)nc(-c2ccc(F)cc2)c1-c1nc2ccccc2s1
maximum non-toxic concentration (Huh7.5; cytotoxicity; 72 h): 100 µg/mL

N#Cc1ccc(Nc2nc(N)cc(Oc3ccc(-c4cccc(F)c4)cc3)n2)cc1
CC50 (MT4 uninfected): 19.6 ± 10.2 µM

CC(C)[C@H](NC(=O)[C@H](Cc1ccc(O)cc1)NC(=O)[C@H](Cc1ccc(O)cc1)NC(=O)[C@@H]1CCCN1C(=O)[C@H](CCC(=O)O)NC(=O)[C@H](CCC(=O)O)NC(=O)[C@H](Cc1c[nH]c2ccccc12)NC(=O)[C@@H]1CCCN1C(=O)[C@@H](NC(=O)[C@H](CCC(N)=O)NC(=O)c1ccc2c(c1)C(=O)OC21c2ccc(O)cc2Oc2cc(O)ccc21)C(C)C)C(=O)N[C@H](C(=O)N[C@@H](CCCCN)C(=O)N[C@@H](CCCCN)C(=O)N[C@@H](CO)C(=O)N[C@@H](CO)C(=O)NCC(=O)NCC(N)=O)C(C)C
plasma concentration (human, plasma; intravenous infusion, 189.6 mg, 0.08333 h): 8520 ng/mL

CSc1nc(NS(=O)(=O)c2ccccc2)nc(N)c1-c1nc2ccccc2s1
maximum non-toxic concentration (Huh7.5; cytotoxicity; 72 h): 90 µg/mL

CC(C)C[C@H](NC(=O)C[C@H](O)[C@H](CC(C)C)NC(=O)[C@H](Cc1c[nH]cn1)NC(=O)CNC(=O)[C@@H](NC(=O)[C@H](C)NC(=O)[C@H](Cc1c[nH]c2ccccc12)NC(=O)[C@H](CCC(N)=O)NC(=O)[C@@H](Cc1ccccc1)NC(=O)COCCOCCNC(=O)CN1CCN(CC(=O)O)CCN(CC(=O)O)CCN(CC(=O)O)CC1)C(C)C)C(N)=O [lutetium-177 labelled]
tissue uptake (female BALB/c nu/nu mice, spleen; intravenous, 50 pmol, 1 h): 0.19 ± 0.02 %ID/g

COc1cc2c(c(O)c1OC)C(=O)c1c(cc(C)c(O)c1OC)C2=O
cell viability (HK-2 co-cultured with HepaRG; MTT; 16.67 µM, 48 h; reference: untreated control): 76.1 ± 6.06%

O=C(CCNc1cnc(C(=O)Nc2cc(F)cc3cccnc23)cn1)NO
cytotoxicity (MIA PaCa-2; MTT; concentration not given): not toxic

N#Cc1ccc(Nc2nc(N)cc(Oc3ccc(-c4ccc(C#N)c(F)c4)cc3F)n2)cc1
CC50 (MT4 uninfected): 241 ± 20.7 µM

CCCC(CCC)NC(=O)c1ccc2c(c1)OCO2
cells with aberrations (CHO-WBL; 5 mg/mL, 3 h, with rat liver S9): 0.5%

COc1cc(F)ccc1-c1ncnc(Nc2cccc(C[S@](C)(=N)=O)c2)n1
remaining activity (VRK2 (Homo sapiens, UniProt Q86Y07); kinase activity; 10 µM, added: 10 µM ATP): 83%

N#Cc1ccc(Nc2nc(N)cc(Oc3ccc(-c4ccc(C#N)cc4)cc3C#N)n2)cc1
CC50 (MT4 uninfected): > 45 µM

COc1c(O)c(C)cc2c1C(=O)c1c(cc(O)c(O)c1O)C2=O
viability (HK-2 co-cultured with HepaRG; MTT; 66.67 µM, 48 h; reference: untreated control): 83 ± 7.89%

N#Cc1ccc(Nc2nc(N)cc(Oc3c(F)cc(-c4ccccc4C#N)cc3F)n2)cc1
CC50 (MT4 uninfected): > 256 µM

CC(C)NCCCn1c(Sc2cc3c(cc2I)OCO3)nc2c(N)ncnc21
EC50 (MYBPC3-mutant iPSC cardiomyocytes; cell viability; 24 h): > 60 µM

O=C(CNc1nc(NS(=O)(=O)c2ccccc2)ncc1-c1nc2ccccc2s1)c1ccc(Br)cc1
maximum non-toxic concentration (Huh7.5; cytotoxicity; 72 h): 120 µg/mL

O=c1nc(N2CCN(CC3CCCCC3)CC2)sc2c([N+](=O)[O-])cc(C(F)(F)F)cc12
fraction unbound (equilibrium dialysis; human plasma; 1 µM, 18 h, pH 7.4): 0.004

Cc1ccc(-c2nc(N)nc(N)c2-c2nc3ccccc3s2)cc1
maximum non-toxic concentration (Huh7.5; cytotoxicity; 72 h): 110 µg/mL

CC(=O)OC[C@H]1O[C@@H]([S-])[C@H](OC(C)=O)[C@@H](OC(C)=O)[C@@H]1OC(C)=O.CCP(CC)CC.[Au+]
cytotoxicity (RPMI-8226; XTT; 0.1 µM, 3 days): not toxic

Cc1noc(C)c1Cn1cc(N2C(=O)CN(Cc3cccc(O)c3)C2=O)cn1
aberrant cells without gaps (human blood lymphocytes; 823.8 µg/mL, 3 h): 1.5%

CCCCc1oc2ccccc2c1C(=O)c1cc(I)c(OCCN(CC)CC)c(I)c1
ALERT score (H9 human embryonic stem cell aggregates; qRT-PCR; 3D aggregates; 0.5 µM, 5 days, developmental toxicity model; direction not given): 0

COc1cc2c(c(O)c1OC)C(=O)c1c(cc(C)c(O[C@@H]3O[C@H](CO)[C@@H](O)[C@H](O)[C@H]3O)c1OC)C2=O
cell viability (HK-2 co-cultured with HepaRG; MTT; 266.67 µM, 24 h; reference: untreated control): 45.7 ± 14.3%

Cc1ccc(-c2nc(NS(=O)(=O)c3ccc(C)cc3)nc(N)c2-c2nc3ccccc3s2)cc1
maximum non-toxic concentration (Huh7.5; cytotoxicity; 72 h): 100 µg/mL

c1csc(CNc2cc[nH]n2)c1
cells with structural aberrations (human peripheral blood lymphocytes, female; 1560 µg/mL, 4 h, without S9): 1.5%

CSc1c(-c2nc3ccccc3[nH]2)c(N)n(NS(=O)(=O)c2ccccc2)c(=O)c1C#N
maximum non-toxic concentration (Huh7.5; 72 h): 100 µg/mL

COc1cc(O)c2c(c1)C(=O)c1cc(C)cc(O)c1C2=O
viability (HK-2 co-cultured with HepaRG; MTT; 33.33 µM, 24 h; reference: untreated control): 100 ± 15.5%

Repeated from above:
COc1c(O)c(C)cc2c1C(=O)c1c(O)cccc1C2=O
viability (HK-2 co-cultured with HepaRG; MTT; 266.67 µM, 48 h; reference: untreated control): 59.7 ± 6.33%

N#Cc1ccc(Nc2nc(N)cc(Oc3ccc(-c4ccccc4F)cc3F)n2)cc1
CC50 (MT4 uninfected): 19.9 ± 7.82 µM

CCCCCCCCCCCCCCCCOP(=O)([O-])OCC[N+](C)(C)C
CC50 (human primary fibroblasts; viability, MTS; 24 h): > 20 µM

O=c1ccn([C@@H]2O[C@H](COP(=O)(O)OP(=O)(O)O[C@H]3O[C@H](CO)[C@@H](O)[C@H](O)[C@H]3O)[C@@H](O)[C@H]2O)c(=S)[nH]1
Ki (P2Y purinoceptor 14 (P2RY14, Homo sapiens, UniProt Q15391, Y102A)): > 3 µM
